Published values collected from several papers.
Compare with care: the assays were run in different laboratories. Several values in a cell are separate wells, animals, samples, runs or records.
ALOX15: Polyunsaturated fatty acid lipoxygenase ALOX15 (ALOX15, Homo sapiens, UniProt P16050)
Chain of UniProt P16050 (whole entry, looked up): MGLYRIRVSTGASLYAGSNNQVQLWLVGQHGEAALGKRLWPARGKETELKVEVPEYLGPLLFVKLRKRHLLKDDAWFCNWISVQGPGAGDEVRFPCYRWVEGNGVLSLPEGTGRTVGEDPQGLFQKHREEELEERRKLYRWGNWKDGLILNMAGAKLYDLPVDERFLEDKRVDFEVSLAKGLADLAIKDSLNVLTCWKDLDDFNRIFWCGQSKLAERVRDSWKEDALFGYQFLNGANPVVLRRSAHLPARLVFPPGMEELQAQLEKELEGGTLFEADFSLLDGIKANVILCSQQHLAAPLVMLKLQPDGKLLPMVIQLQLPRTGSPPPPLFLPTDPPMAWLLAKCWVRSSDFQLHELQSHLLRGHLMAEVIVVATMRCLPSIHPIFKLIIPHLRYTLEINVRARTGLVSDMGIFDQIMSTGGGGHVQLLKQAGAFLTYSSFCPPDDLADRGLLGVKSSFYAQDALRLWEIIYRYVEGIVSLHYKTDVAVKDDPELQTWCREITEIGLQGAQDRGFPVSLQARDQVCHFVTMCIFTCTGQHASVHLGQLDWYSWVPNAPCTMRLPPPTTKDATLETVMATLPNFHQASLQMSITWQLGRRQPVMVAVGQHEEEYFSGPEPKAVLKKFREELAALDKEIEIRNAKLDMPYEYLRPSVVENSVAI
PARP2: Poly [ADP-ribose] polymerase 2 (PARP2, Homo sapiens, UniProt Q9UGN5)
Chain of UniProt Q9UGN5 (whole entry, looked up): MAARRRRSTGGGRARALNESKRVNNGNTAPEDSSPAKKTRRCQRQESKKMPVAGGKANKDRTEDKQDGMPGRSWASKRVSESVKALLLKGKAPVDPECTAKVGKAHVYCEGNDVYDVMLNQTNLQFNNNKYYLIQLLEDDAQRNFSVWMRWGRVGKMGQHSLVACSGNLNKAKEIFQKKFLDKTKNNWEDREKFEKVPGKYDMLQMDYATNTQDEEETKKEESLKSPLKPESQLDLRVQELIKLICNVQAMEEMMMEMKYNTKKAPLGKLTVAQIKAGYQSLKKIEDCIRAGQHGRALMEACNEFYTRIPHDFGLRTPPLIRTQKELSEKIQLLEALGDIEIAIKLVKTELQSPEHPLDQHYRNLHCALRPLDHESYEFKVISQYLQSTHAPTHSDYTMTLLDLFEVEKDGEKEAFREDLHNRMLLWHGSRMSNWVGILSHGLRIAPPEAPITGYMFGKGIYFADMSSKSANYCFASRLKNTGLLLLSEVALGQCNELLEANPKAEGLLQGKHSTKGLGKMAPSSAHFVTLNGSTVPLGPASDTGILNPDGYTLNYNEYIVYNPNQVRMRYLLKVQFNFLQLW
CES2: Cocaine esterase (CES2, Homo sapiens, UniProt O00748)
Chain of UniProt O00748 (whole entry, looked up): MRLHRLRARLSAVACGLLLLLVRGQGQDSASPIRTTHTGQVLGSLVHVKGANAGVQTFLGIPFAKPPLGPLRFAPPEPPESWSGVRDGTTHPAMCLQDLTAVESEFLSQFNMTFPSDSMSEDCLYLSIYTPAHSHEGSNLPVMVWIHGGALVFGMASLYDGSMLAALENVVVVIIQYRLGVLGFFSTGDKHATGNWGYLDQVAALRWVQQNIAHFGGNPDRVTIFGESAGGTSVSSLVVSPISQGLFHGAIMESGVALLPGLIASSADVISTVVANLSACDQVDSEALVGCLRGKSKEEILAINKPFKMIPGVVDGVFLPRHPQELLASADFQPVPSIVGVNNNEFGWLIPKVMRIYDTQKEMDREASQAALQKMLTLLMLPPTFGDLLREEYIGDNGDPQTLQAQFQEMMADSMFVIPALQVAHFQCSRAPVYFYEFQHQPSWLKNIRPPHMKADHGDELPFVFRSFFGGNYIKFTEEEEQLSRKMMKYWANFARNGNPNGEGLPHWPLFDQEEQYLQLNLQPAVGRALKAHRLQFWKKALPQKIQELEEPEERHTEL
HDAC8: Histone deacetylase 8 (HDAC8, Homo sapiens, UniProt Q9BY41)
Chain of UniProt Q9BY41 (whole entry, looked up): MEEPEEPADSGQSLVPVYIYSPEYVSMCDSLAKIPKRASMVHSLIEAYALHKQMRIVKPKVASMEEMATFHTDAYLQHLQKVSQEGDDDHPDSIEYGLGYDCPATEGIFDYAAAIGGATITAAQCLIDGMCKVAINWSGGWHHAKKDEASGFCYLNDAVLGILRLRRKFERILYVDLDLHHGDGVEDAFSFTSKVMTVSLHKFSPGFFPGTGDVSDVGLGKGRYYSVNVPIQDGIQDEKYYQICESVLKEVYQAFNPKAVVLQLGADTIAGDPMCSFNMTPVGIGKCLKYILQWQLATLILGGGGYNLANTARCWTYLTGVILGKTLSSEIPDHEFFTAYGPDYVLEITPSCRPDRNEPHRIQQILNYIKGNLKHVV
PIK3CB: Phosphatidylinositol 4,5-bisphosphate 3-kinase catalytic subunit beta isoform (PIK3CB, Homo sapiens, UniProt P42338)
Chain of UniProt P42338 (whole entry, looked up): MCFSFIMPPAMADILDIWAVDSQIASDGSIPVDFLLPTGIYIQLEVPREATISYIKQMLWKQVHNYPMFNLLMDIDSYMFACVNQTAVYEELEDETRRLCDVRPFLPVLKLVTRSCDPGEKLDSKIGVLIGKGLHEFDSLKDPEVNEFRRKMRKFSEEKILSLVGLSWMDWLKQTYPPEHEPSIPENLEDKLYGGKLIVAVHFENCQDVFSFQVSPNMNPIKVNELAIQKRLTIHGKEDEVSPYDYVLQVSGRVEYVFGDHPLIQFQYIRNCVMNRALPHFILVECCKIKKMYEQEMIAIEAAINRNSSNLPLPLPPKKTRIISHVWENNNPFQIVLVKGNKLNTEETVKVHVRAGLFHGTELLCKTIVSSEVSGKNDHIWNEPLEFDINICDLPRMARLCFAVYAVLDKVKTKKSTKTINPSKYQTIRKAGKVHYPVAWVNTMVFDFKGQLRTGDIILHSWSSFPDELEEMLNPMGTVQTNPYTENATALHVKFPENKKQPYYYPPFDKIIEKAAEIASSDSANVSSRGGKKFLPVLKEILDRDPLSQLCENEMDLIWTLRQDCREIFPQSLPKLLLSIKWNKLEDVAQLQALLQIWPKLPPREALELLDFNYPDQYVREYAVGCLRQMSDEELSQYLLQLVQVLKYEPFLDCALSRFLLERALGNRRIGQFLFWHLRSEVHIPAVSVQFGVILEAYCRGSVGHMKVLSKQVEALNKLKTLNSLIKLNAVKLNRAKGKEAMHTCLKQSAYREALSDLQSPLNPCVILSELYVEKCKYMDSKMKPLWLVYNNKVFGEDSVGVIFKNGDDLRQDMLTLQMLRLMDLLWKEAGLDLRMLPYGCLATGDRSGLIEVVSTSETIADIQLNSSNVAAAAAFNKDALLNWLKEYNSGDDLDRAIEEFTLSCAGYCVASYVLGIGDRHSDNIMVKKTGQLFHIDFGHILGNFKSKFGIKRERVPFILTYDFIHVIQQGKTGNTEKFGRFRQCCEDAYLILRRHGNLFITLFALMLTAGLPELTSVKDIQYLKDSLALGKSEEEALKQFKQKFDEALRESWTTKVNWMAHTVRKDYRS
DRD3: D(3) dopamine receptor (DRD3, Homo sapiens, UniProt P35462)
Chain of UniProt P35462 (whole entry, looked up): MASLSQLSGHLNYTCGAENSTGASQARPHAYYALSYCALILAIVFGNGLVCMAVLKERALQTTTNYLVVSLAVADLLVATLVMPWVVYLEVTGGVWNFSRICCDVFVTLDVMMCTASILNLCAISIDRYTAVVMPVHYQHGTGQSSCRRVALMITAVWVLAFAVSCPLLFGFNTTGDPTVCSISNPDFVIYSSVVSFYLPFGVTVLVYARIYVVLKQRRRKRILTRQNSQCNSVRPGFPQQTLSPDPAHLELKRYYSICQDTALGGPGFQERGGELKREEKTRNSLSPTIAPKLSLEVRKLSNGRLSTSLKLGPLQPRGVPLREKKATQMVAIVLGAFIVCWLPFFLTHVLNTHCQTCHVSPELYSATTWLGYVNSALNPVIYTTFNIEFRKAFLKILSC
HDAC6: Protein deacetylase HDAC6 (HDAC6, Homo sapiens, UniProt Q9UBN7)
PSMB8: Proteasome subunit beta type-8 (PSMB8, Homo sapiens, UniProt P28062)
HDAC1: Histone deacetylase 1 (HDAC1, Homo sapiens, UniProt Q13547)
Chain of UniProt Q13547 (whole entry, looked up): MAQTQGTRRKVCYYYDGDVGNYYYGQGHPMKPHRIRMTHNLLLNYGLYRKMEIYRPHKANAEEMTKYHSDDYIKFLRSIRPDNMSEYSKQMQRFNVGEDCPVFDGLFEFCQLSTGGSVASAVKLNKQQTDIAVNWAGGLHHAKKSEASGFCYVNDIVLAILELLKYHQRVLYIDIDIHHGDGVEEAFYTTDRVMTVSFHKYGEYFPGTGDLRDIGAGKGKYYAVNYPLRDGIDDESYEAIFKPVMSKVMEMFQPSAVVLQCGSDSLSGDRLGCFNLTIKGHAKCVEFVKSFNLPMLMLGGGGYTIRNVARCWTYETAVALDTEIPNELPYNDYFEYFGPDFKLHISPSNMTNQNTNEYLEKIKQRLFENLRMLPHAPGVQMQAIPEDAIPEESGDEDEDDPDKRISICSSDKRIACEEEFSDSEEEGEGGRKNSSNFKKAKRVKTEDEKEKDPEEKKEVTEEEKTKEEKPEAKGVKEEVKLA
Chain of UniProt Q9UM07 (whole entry, looked up): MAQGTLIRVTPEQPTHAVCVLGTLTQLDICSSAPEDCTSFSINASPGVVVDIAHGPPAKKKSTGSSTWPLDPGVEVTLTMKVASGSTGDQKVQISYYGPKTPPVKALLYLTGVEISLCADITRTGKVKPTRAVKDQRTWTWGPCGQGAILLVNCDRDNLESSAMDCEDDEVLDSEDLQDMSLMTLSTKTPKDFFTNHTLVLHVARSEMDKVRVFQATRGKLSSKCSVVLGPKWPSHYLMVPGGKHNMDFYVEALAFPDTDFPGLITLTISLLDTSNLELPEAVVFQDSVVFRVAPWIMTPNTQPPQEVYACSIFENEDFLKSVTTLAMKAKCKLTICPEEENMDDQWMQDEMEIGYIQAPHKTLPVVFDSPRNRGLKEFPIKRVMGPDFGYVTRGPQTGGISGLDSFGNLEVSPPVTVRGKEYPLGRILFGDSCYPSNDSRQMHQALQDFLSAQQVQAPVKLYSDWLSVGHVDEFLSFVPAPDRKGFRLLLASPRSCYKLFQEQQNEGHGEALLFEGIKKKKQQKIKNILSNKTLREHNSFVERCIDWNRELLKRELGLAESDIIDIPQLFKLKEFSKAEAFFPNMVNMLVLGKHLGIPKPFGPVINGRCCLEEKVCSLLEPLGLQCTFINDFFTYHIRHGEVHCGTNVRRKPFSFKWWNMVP

With `CCOC(=O)c1ccccc1-c1c2ccc(=O)cc-2oc2cc(OCCCn3nnnc3C(C3CC3)N3CCSC3)ccc12` (centres unmarked) the IC50 was over 100 µM (ALOX15; enzyme activity, inhibitor, absorbance).
With `CCCCCCC#Cc1cncc(-c2nnc(SCc3cc([N+](=O)[O-])cc([N+](=O)[O-])c3)n2CCCN)c1` the IC50 was 25 µM (mraY (Staphylococcus aureus, UniProt Q2FZ93); enzyme activity, inhibitor).
For `Cn1nc2c(=O)n(C3CC3)cnc2c1[C@](O)(c1cnc(C(F)(F)F)c(Cl)c1)C(F)(F)F`, the IC50 was ~50 µM and 48.9 µM (Voltage-gated inwardly rectifying potassium channel KCNH2 (KCNH2, Homo sapiens, UniProt Q12809); ion current, inhibitor, patch clamp; CHO).
For `c1ccc(Cc2[nH]nc(-c3ccccn3)c2-c2ccnc3ccccc23)cc1`, the IC50 was > 4 µM and 4.7 µM (Serine/threonine protein kinase YCK2 (YCK2, Candida albicans, UniProt A0A1D8PKB4); enzyme activity, inhibitor, ADP detection).
For `COc1ccc(Cn2nnc3c4ccc(F)cc4c(=O)[nH]c32)cc1`, the IC50 was over 10 µM (PARP2; enzyme activity, inhibitor).
`C[C@H]1c2cccc(O)c2C(=O)C2=C(O)[C@]3(O)C(=O)C(C(N)=O)=C(O)[C@@H](N(C)C)[C@@H]3[C@@H](O)[C@@H]21` gave an IC50 of over 100 µM (CES2; enzyme activity, inhibitor, fluorescence; with preincubation).
`FC(F)OC(Cl)C(F)(F)F` (centres unmarked) gave an IC50 of 2 µM (Cystathionine beta-synthase (CBS, Homo sapiens, UniProt P35520); enzyme activity, inhibitor).
`Cc1cc(C(C)(C)C)ccc1OS(=O)(=O)Oc1cccc(C(=O)NO)c1` has an IC50 of 2.26 µM (HDAC8; enzyme activity, inhibitor, fluorescence).
For `CC(C)(C)c1ccc(Cn2nnc3c4ccc(F)cc4c(=O)[nH]c32)cc1`, the IC50 was over 10 µM (PARP2; enzyme activity, inhibitor).
`COc1cc(N=C2C(=O)Nc3ccccc32)cc(OC)c1` has an IC50 of 0.0864 µM (PIK3CB; enzyme activity, inhibitor, ADP detection).
`Cc1[nH]c(C)c(S(=O)(=O)Nc2cc(Cl)cc(C(F)(F)F)c2)c1C(=O)N1CCC(F)(F)C1` has an IC50 of 29 µM (DRD3; β-arrestin recruitment, antagonist).
With `S=C=NCc1ccccc1` the IC50 was 42.9 µM (Bifunctional epoxide hydrolase 2 (EPHX2, Homo sapiens, UniProt P34913); enzyme activity, inhibitor, fluorescence).
`O=C(NO)c1cc(F)cc(OS(=O)(=O)Oc2ccc(C(F)(F)F)cc2)c1` gave an IC50 of 0.564 µM (HDAC6; enzyme activity, inhibitor, fluorescence).
`Cc1[nH]c(C)c(S(=O)(=O)Nc2ccc(I)c(Cl)c2)c1C(=O)N1CCC(F)(F)C1` gave an IC50 of 5 µM (DRD3; β-arrestin recruitment, antagonist).
For `CC(C)c1ccc(OS(=O)(=O)Oc2cccc(C(=O)NO)c2)cc1`, the IC50 was 1.41 µM (HDAC6; enzyme activity, inhibitor, fluorescence).
`Cc1cccc(N=C2C(=O)N(Cc3ccccc3)c3ccccc32)c1` gave an IC50 of 0.0146 µM (PIK3CB; enzyme activity, inhibitor, ADP detection).
For `Cc1ccc(CNS(=O)(=O)c2c(C)[nH]c(C)c2C(=O)N2CCCC2)cc1Cl`, the IC50 was 56 µM (DRD3; β-arrestin recruitment, antagonist).
`COc1cc2c(Nc3ccc(Br)cc3F)ncnc2cc1OCC1CCN(C)CC1` has an IC50 of over 100 µM (CES2; enzyme activity, inhibitor, fluorescence; with preincubation).
`Cc1[nH]c(C)c(S(=O)(=O)Nc2ccc(C(F)(F)F)c(Cl)c2)c1C(=O)N1CCC(O)C1` (centres unmarked) has an IC50 of 6.2 µM (DRD3; G protein activation, antagonist, BRET).
The IC50 of `Cc1cc(OS(=O)(=O)Oc2ccc(-n3ccnc3)cc2)cc(C(=O)NO)c1` is reported as 2.05 µM (HDAC8; enzyme activity, inhibitor, fluorescence).
`Cc1[nH]c(C)c(S(=O)(=O)Nc2cc(Cl)c(Cl)c(Cl)c2)c1C(=O)N1CCC(F)(F)C1` gave an IC50 of 5.8 µM (DRD3; β-arrestin recruitment, antagonist).
The IC50 of `COc1cc2c(cc1OC)C(=O)/C(=C/c1ccccc1C)C2` is reported as 0.61 µM (CES2; enzyme activity, inhibitor, fluorescence; with preincubation).
The IC50 of `COC[C@H](NC(=O)[C@H](CC(C)C)NC(=O)[C@H](Cc1ccccc1)N=[N+]=[N-])C(=O)N[C@H](/C=C/S(C)(=O)=O)Cc1ccc(CN)cc1` is reported as 5.22 µM (PSMB8; enzyme activity, inhibitor; lysate).
`COc1cc2ncnc(N(C)c3ccc4c(c3)/C(=C/c3ccccc3)C(=O)N4C)c2cc1OC` (mixture of isomers) has an IC50 of 0.344 µM (PIK3CB; enzyme activity, inhibitor, ADP detection).
The IC50 of `O=C(NO)c1cccc(OS(=O)(=O)Oc2ccc3c(c2)OCO3)c1` is reported as 4.38 µM (HDAC1; enzyme activity, inhibitor, fluorescence).
`Cc1[nH]cc(S(=O)(=O)Nc2ccc(C(F)(F)F)c(Cl)c2)c1C(=O)N1CCC(F)(F)C1` gave an IC50 of 26 µM (DRD3; β-arrestin recruitment, antagonist).
With `FC(F)(F)c1cccc(Nc2ncnc3ccc(-c4ccoc4)cc23)c1` the IC50 was 0.00447 µM (Epidermal growth factor receptor (EGFR, Homo sapiens, UniProt P00533); enzyme activity, inhibitor, radiometric).
`CC(=O)Nc1cccc(-n2c(=O)n(C3CC3)c(=O)c3c(Nc4ccc(I)cc4F)n(C)c(=O)c(C)c32)c1` gave an IC50 of 17.2 µM (CES2; enzyme activity, inhibitor, fluorescence; with preincubation).
With `Cc1[nH]c(C)c(S(=O)(=O)Nc2ccc(Cl)cc2C(F)(F)F)c1C(=O)N1CCC(F)(F)C1` the IC50 was 14 µM (DRD3; G protein activation, antagonist, BRET).
`Cc1ccc(Cn2nnc3c4ccccc4c(=O)[nH]c32)cc1` has an IC50 of over 10 µM (PARP2; enzyme activity, inhibitor).
For `COc1cc2c(N3CCN(C(=O)Nc4ccc(OC(C)C)cc4)CC3)ncnc2cc1OCCCN1CCCCC1`, the IC50 was over 100 µM (CES2; enzyme activity, inhibitor, fluorescence; with preincubation).
`CCCCCn1nnc2c3ccccc3c(=O)[nH]c21` has an IC50 of over 10 µM (PARP2; enzyme activity, inhibitor).
`CCCCCOc1ccc2cc(C(=O)N[C@@H](CCCNC(=N)CCl)C(=O)NCc3ccccc3)ccc2c1` gave an IC50 of ~0.9 µM and 0.902 µM (Protein-arginine deiminase type-4 (PADI4, Homo sapiens, UniProt Q9UM07); enzyme activity, inhibitor, fluorescence; with preincubation).
For `Cc1ccc(Cn2nnc3c4ccc(F)cc4c(=O)[nH]c32)cc1`, the IC50 was over 10 µM (Protein mono-ADP-ribosyltransferase PARP10 (PARP10, Homo sapiens, UniProt Q53GL7); enzyme activity, inhibitor).
`Cc1cnc(NC(=O)C2=C(O)c3ccccc3S(=O)(=O)N2C)s1` gave an IC50 of over 100 µM (CES2; enzyme activity, inhibitor, fluorescence; with preincubation).
`O=C(NO)c1cncc(OS(=O)(=O)Oc2ccc3ccccc3c2)c1` gave an IC50 of 1.42 µM (HDAC1; enzyme activity, inhibitor, fluorescence).
`Cc1ccc(Cn2nnc3c4ccc(C(F)(F)F)cc4c(=O)[nH]c32)cc1` gave an IC50 of over 10 µM (PARP2; enzyme activity, inhibitor).
`COc1ccc(C[C@H](NC(=O)[C@H](C)NC(=O)CN2CCOCC2)C(=O)N[C@@H](CC2CCC3CCCCC3C2)C(=O)[C@@]2(C)CO2)cc1` (some centres unmarked) gave an IC50 of 0.375 µM (PSMB8; enzyme activity, inhibitor; lysate).
`Cc1cc(OS(=O)(=O)Oc2ccc3ccccc3c2)cc(C(=O)NO)c1` gave an IC50 of 5.03 µM (HDAC8; enzyme activity, inhibitor, fluorescence).
`Cc1[nH]c(C)c(S(=O)(=O)Nc2cc(Cl)c(C(F)(F)F)c(Cl)c2)c1C(=O)N1CCC(F)(F)C1` has an IC50 of 2.9 µM (DRD3; β-arrestin recruitment, antagonist).
For `COc1ccc2c(c1)C(=O)/C(=C/c1ccccc1)C2`, the IC50 was 2.36 µM (CES2; enzyme activity, inhibitor, fluorescence; with preincubation).
For `O=C1C(=Nc2ccc(Cl)cc2Br)c2ccccc2N1Cc1ccc([N+](=O)[O-])cc1`, the IC50 was 0.0363 µM (PIK3CB; enzyme activity, inhibitor, ADP detection).
`COc1cc2ncnc(Nc3ccc4c(c3)/C(=C/c3ccccc3)C(=O)N4)c2cc1OC` has an IC50 of 0.0992 µM (PIK3CB; enzyme activity, inhibitor, ADP detection).
The IC50 of `Cc1ccc(CN2C(=O)C(=Nc3cccc(C)c3)c3ccccc32)cc1` is reported as 0.0304 µM (PIK3CB; enzyme activity, inhibitor, ADP detection).
`CCOC(=O)c1ccccc1-c1c2ccc(=O)cc-2oc2cc(O)ccc12` has an IC50 of 23.8 µM (ALOX15; enzyme activity, inhibitor, absorbance).
With `NC(=O)c1ccc(C(=O)NOCc2cccc(Cl)c2)cc1` the IC50 was 5.87 µM (NAD-dependent protein deacylase sirtuin-6 (SIRT6, Homo sapiens, UniProt Q8N6T7); enzyme activity, inhibitor, fluorescence).
`COc1cc2c(cc1OC)C(=O)/C(=C/c1ccc(-c3ccccc3)cc1)C2` has an IC50 of 1.27 µM (CES2; enzyme activity, inhibitor, fluorescence; with preincubation).
`Cc1cc(OS(=O)(=O)Oc2ccc(C(F)(F)F)cc2)cc(C(=O)NO)c1` gave an IC50 of 4.52 µM (HDAC8; enzyme activity, inhibitor, fluorescence).
`O=C1Nc2ccccc2/C1=N\c1ccc(Cl)cc1` has an IC50 of 0.78 µM (PIK3CB; enzyme activity, inhibitor, ADP detection).
The IC50 of `Nc1ccccc1NC(=O)c1ccc(CNc2ccc(NC3=C(Cl)C(=O)c4cccnc4C3=O)cc2)cc1` is reported as 0.0675 µM (HDAC1; enzyme activity, inhibitor).
